Results of several laboratories.
Each numbered part is a random draw from the data of one study; scales do not carry over between parts. Substitutions count along the parent as printed.

Study 1 — method: protein-binding microarray; molecule type: double-stranded DNA, one strand shown; sample: in vitro; tested at: 250 nM; setting: 60-bp whole probe; together with: salmon DNA 0.4 mg/ml; relative to: random background probes; direction: higher = stronger binding; shared flanks, not repeated: GCCTAGCAC … GTCTTGATTCGCTTGACGCTGCTG
Target: Interferon regulatory factor 5, full length, phosphomimetic (IRF5, Homo sapiens, UniProt Q13568-2, residues 1-514, K96S/S451D/S453D/S456D/S462D)
Sequence | log fluorescence [z-score]
GACGTTTTCGGTTCCGGGACGTGCTAG | 8.33
TTAGAACTGAGTCTCCATTAGTGCTAG | -0.0558
TTACGTCTCGGACTGGGTTAGTGCTAG | 0.258
TAGTTTTTACTTTCTGAATGGTGCTAG | 3.92
GTCGATTCCAGTTTCGAGACGTGCTAG | 5.99
TCACTCTTTGGCAAAGCCAGGTGCTAG | -0.248
CTGCATCTGATTTCTCAAACAGTGCTA | 0.138
GACAAACTGAGTCTCGAGACGTGCTAG | -0.0903
GAAAATTTCTTCCTCCCCCTGTGCTAG | 1.1
GACGGACTTCTACTGCTGACGTGCTAG | 0.00171
GACGCTATCCTACTGCTGACGTGCTAG | -0.257
TTAGATATCATTCTCGATTAGTGCTAG | 1.78
GACGGTTCCGGTTTCGGGAGGTGCTAG | 4.74
GACGGACTTGGTTTCGGGACGTGCTAG | 4.43
TTTCATTTTTTTTTTCATCAGTGCTAG | 8.85
TTAGGTATCCTTTTCCTTCAGTGCTAG | 0.662
GACGGTTTCGACACTGGAGACGTGCTA | 4.81
TTTGAACTGGGGTTTCGATTAGTGCTA | 5.75
TTAGATATCAATATCGATTAGTGCTAG | 5.24
TTTTTTTTCTTTAAAAGTGAGTGCTAG | 1.18
GACGGTTTCGCGTTTCGGGACGTGCTA | 3.4
TCAATTTTCGTTTTGTGACTGTGCTAG | 5.24
TCACCTCTGTTTTGAGCACTGTGCTAG | 0.252
TTAGAACTCGGGACTGGATTAGTGCTA | -0.233
AACGGTATCGGTATCGGGACGTGCTAG | 7.03

Study 2 — method: universal PBM; molecule type: double-stranded DNA, one strand shown; sample: in vitro; tested at: not given; direction: higher = stronger binding
Target: Sal-like protein 4, full length isoform B (SALL4, Homo sapiens, UniProt Q9UJQ4-2, residues 1-616)
Setting: 8-mer, flanks averaged, mean of replicates
Residues (chain): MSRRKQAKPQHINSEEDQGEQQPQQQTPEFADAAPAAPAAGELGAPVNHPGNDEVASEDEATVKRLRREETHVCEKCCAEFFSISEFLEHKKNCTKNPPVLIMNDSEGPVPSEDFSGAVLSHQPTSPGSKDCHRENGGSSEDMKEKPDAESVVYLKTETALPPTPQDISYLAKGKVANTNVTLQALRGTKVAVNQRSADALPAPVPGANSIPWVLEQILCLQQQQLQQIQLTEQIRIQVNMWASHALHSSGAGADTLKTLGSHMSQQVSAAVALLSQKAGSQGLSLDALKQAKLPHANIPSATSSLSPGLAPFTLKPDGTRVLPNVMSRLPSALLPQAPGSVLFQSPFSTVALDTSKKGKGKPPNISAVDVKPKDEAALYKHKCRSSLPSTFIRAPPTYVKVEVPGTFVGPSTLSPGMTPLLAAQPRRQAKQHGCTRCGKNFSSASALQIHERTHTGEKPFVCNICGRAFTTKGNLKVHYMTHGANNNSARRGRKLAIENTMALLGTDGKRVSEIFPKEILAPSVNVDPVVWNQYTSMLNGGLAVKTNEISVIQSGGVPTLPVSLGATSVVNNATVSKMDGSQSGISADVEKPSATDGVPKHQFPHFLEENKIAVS
Sequence | E-score
ATTCAAAC | 0.304
GTTCAACA | 0.111
AAGGTCAA | 0.0643
ATCGCGTC | -0.118
CCGCGAAA | -0.158
CTAATCCC | 0.0526
CGTCTCAG | -0.189
GCATGTCA | 0.0596
ATCCGCCC | -0.285
CGTGTCTA | -0.0146
ATAAAAAC | 0.365
ACGTGAGT | 0.00663
AAAATTAT | 0.425
CTATCATA | 0.275
AGCTCAAG | -0.153
GGCCTGAC | -0.266
ATGTTTAC | 0.139
CGTTCTGC | -0.0662
ACTGACTC | -0.103
CAGATTGG | -0.216
CGCAGACG | -0.138
AAAGTGGG | -0.0524
ACACAGCT | -0.097
TCTCTTAA | 0.17
GCCTCCGA | -0.224

Study 3 — target: CCND3, cyclin fold, Cln2 fusion (human); method: yeast growth competition, sequencing; sample: yeast; setting: weak parent motif; relative to: not given; direction: higher = stronger binding
Starting sequence: RBL2 docking peptide (human); STTRRRLFVENDS
Substitution | normalised enrichment score
V9Y | 0.133
L7N | 0.126
R5D | 0.162
D12A | -0.0288
F8I | 0.158
F8Y | 0.0497
R4M | 0.101
T3L | 0.111
S1R | 0.268
T3Q | 0.153
E10L | 0.116
S13K | 0.048
L7T | 0.0619
L7K | 0.0801
F8K | 0.134
F8R | 0.136
L7P | 0.0181
S1K | 0.0478
R4S | 0.0234
T3C | 0.168
D12G | 0.141
L7A | 0.144
S1G | 0.1
T2A | 0.119
F8D | 0.108

Study 4 — method: RNA Bind-n-Seq; molecule type: RNA; sample: in vitro; tested at: not given; relative to: input RNA pool; direction: higher = stronger binding
Target: RING finger protein unkempt homolog, zinc fingers 1-6, GST-SBP tag (UNK, Homo sapiens, UniProt Q9C0B0, residues 30-357)
Setting: RNA with constant flanks, human and mouse sites, ends assumed
Shared flanks, not repeated: GGGAGUUCUACAGUCCGACGAUC … CAACAGAGGAUUGAGCAUCA
Target sequence (chain): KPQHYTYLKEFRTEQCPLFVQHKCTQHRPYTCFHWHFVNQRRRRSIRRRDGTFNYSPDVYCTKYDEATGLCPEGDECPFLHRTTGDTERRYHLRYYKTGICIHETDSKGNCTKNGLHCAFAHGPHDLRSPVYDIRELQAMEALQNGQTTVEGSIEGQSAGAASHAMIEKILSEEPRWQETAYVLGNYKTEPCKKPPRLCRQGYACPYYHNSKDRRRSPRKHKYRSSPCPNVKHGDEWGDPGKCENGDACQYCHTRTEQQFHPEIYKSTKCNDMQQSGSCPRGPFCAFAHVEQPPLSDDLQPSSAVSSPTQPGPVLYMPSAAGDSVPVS
Sequence | bound/input enrichment [ratio]
UUUCCGGUCCUUCCUGGGCAAAUCUAAGCCUUGGCCAGGGCCGAAGUUUAGGCCCCUGUCUUGUUCAUGUAGCCGAGGGGCAGGCGGGGGACCUCUACACCUCUGCUGUGGGCACGGGGC | 0.186
CUAACCCUGAGGCAGUGAUGGGAAAAAUUGCCUUGAUACAAAGAGGACAGUGCAUGUUUGCAGAAAAGGCACGCAACAUUCAGAAUGCUGGCGCCAUCGGUGGCAUUGUGAUCGAUGACA | 0.121
CCUGUACCCGCACCCCUGCCCAUGUGUACUGUAUGUGCCCCCAAAUGGAUGAGAGAUGGAAAUAGAAAGAGGGGGCCCGAGCCCAGCCCCCAGCUCAGCCCGAAGCACUUAACCAGUCCC | 0.538
UUGAUCCUAGAAAGAAAAAAUAAUUUUUCAUUUUAGAUCUUGAUUGAAUUUAAGAUGUAUUUAUAUGCCUACAAAAGGUCUGUCUUGUAACUGUUGUAUAAAAUAAACCUAAUCUAUGGU | 0.214
AGAGGUGCAAAGAAGACUGCAGAGAUGAAUGAAAAGCUCUCCAAGAUGGGCGAAAGUUCACUUAGAAACUUUACAAUGGAUACAGAGUCAAGUGUUUAUAACUUCGAAGGAGAAGACUAU | 0.599
AAGAUCUCCAUGGAUGUGUUUGUGAGAAAGUUCCAGCCAGAAAGGUACAAACUUUGGAAAGCUGGGAAGGACAACACAGUUAUUGACCAUACUCUGCCCACGCCAGAAGCAGCUGAGUUU | 0.099
GAGCCCGAGAGGUGGCCAGACCGUCAUCAUCGUUCUAAUACAGCUACUUCCUCAGCCACCGGUAUGAGCCACGGGAAGAGAACCGACAUGCUCCCGGAGAUCGCCGCCGCCGUGGGUUUC | 0.133
UAUUUCAGUGUCAUGGACUUCCUCAAAAUGAAGUGCUAUUUUCUUAUUUUUAAUCAAAUAACUAGACAUAUAUCAGAAACUUUAAAAUGUAAAAGUUGUACACUUUCAACAUUUUAUUAC | 5.56
GAGCAGUUUGAACGCUACCUACAUGAUGAGAGUGGACUGAACAGGCGUCACAUCAUUGAUAACAGGGUACAUUGUUGCUUCUACUUCAUUUCACCUUUUGGACAUGGACUGAAGCCCUUA | 0.114
GCAGAGGAAAGUUCAGAUUGGUUUUAUGGUUUCCUCUCAUUUCUCUAUGAUAUAAUGACUCCUUUUGAAAUGCUAGAAGAAGAAGAAGAAGAAAGCGAAACCGCAGAUGGUGUUGAUGGU | 0.962
CCUAGUCAUUCAUUGCUAACAGGGGAUCAUGAGGGACCCUGUAAGUAGCCAGUACAGCUCCUUUCUUUUCUGGAGGAUGCCCAUCCCAGAACUGGAUCUGUCGGAGCUGGAAGGCCUGGG | 0.324

Study 5 — target: XBP1, bZIP domain (human); method: DHFR protein complementation; sample: yeast; relative to: wild-type JUN-FOS pair; direction: higher = stronger binding
Setting: single substitutions, most at no-binding floor
Starting sequence: JUN, bZIP domain (human); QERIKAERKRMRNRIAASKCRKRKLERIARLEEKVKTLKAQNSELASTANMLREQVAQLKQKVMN; partner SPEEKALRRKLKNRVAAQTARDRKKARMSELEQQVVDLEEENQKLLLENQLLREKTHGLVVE
Substitution | binding fitness [natural log]
K39D | -1.44
L31G | -1.47
K39M | -1.26
K36R | -0.436
K39L | -1.19
Q55W | -1.16
Q55C | -1.11
A29Y | -1.23
L31M | -1.26
Q41I | -0.592
E33C | -1.29
A29C | -1.23
A46Q | -0.44
A57P | -1.46
E33M | -1.14
N42M | -1.32
Q55K | -0.503
S47N | -0.554
A46D | -1.44
L38Q | -1.54

Study 6 — method: protein binding microarray; molecule type: double-stranded DNA, one strand shown; sample: in vitro; tested at: not given; relative to: not given; direction: higher = stronger binding
Target: Histone acetyltransferase KAT6A, winged helix 2, GST fusion (KAT6A, Homo sapiens, UniProt Q92794, residues 85-181)
Setting: 8-mer, flanks averaged, mean of 2 arrays, mostly near background
Construct (chain): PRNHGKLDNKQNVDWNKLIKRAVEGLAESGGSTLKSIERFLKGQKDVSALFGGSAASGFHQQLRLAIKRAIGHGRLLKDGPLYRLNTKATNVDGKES
Sequence | E-score
CCTGGGCC | 0.0152
CCGGTAGG | 0.105
ATGGCCTC | -0.0505
ACCCGTCG | 0.0839
AACAGCCC | -0.0829
ACTGAACG | -0.12
AGCGCAAT | -0.0279
GCGAAACA | 0.116
CTCTGGGA | -0.00124
GTTGCAAC | -0.0969
GGCGTCGA | 0.261
ACTGCAAC | -0.141
GCTGTGAA | -0.0397
CATCAACA | 0.0489
CTGCGATC | -0.0192
ATACGTCG | -0.146
AAGCTCAG | -0.0301
GCTTGGAC | -0.0377
CCGCATAG | 0.119
GACTTACA | -0.144
AGCGGCTG | 0.0383
GGCACTAA | 0.104
ACGCCGAC | 0.0271
CGAATTGA | 0.0459
ATTTAGAG | 0.0756

Single results of other studies
Molecule | target | test | test system | conditions | how to read | measurement | result
PhoQ, residues 284 288 289 292 302 303 SLSVQF | PhoP, residues 12 14 15 18 19 LWHSL (Escherichia coli, UniProt P23836) | Sort-seq, item: YFP reporter | E. coli | PhoQ-PhoP variant library, together with: 10 µM Mg2+ | relative to: high Mg2+ state, higher = stronger signaling | fold induction | 7.05

A few entries again (study 2):
Sequence | E-score
ATAAAAAC | 0.365
ATTCAAAC | 0.304
CGTCTCAG | -0.189
CTATCATA | 0.275
CAGATTGG | -0.216
GTTCAACA | 0.111
CCGCGAAA | -0.158
CTAATCCC | 0.0526
